Results collected from several papers.
Compare with care: the assays were run in different laboratories.
Target: Serine/threonine-protein kinase 16 (STK16, Homo sapiens, UniProt O75716)

SMILES | test | test system | setting | how to read | endpoint | value
Cc1cccc(O[C@H]2CCC[C@@H](C(C)CNCc3ccncc3)C2)c1 (relative stereo) | enzyme activity, inhibitor |  | 10 µM |  | inhibition | -1%
CNC(=O)C[C@H](Cc1ccc(C#N)cc1)NC(=O)c1cc(-c2ccc(CN[C@H](C)c3ccc(C)cc3)o2)ccc1Cl | enzyme activity, inhibitor |  | 1 µM |  | activity vs control | 108%
C=CC(=O)N1CCc2ccc(-n3c(=O)ccc4cnc5ccc(-c6cnn(C)c6)cc5c43)cc21 | KINOMEscan |  | 1 µM | relative to: DMSO control | remaining binding | 97%
C=CC(=O)N1CCCC(n2c(=O)c3ncccc3n(Cc3ccc(Oc4ccccc4)cc3)c2=O)C1 (centres unmarked) | cell-free assay, competition with immobilised ligand |  | 1 µM |  | remaining binding | 100%
C=CC(=O)Nc1cccc(-c2cnc3[nH]cc(C(=O)NC(C)(C)C)c3n2)c1 | enzyme activity, inhibitor |  | 0.1 µM |  | inhibition | 2%
Nc1ncc(-c2cc(-c3cnn(CC(F)(F)F)c3)ncc2F)nc1C(=O)NC1CNCC(F)C1 (centres unmarked) | enzyme activity |  | 1 µM | relative to: DMSO control | remaining activity | 91.4%
C[C@]1(O)CCCN(c2nc(Nc3ccc(S(=O)(=O)N[C@H]4CC[C@H](CN5CCN(c6ccc(C7CCC(=O)NC7=O)cc6F)CC5)CC4)cc3)ncc2C(F)(F)F)C1 (some centres unmarked) | binding, competition with immobilised ligand |  | 1 µM |  | remaining binding | 8.3%
Cc1ccc(C(=O)Nc2ccc(CN3CCN(C)CC3)c(C(F)(F)F)c2)cc1C#Cc1cnc2cccnn12 | target engagement, NanoBRET | human cells |  |  | Hill slope | -0.559
NC(=O)[C@@H](O)C[C@H]1CCc2sc3ncnc(O[C@H]4CC[C@H](N5CCOCC5)CC4)c3c21 | enzyme activity, inhibitor |  | 10 µM |  | inhibition | 4%
C=CC(=O)N1Cc2nc(-c3cc(-c4cc(Cl)cnc4Cl)c(F)cc3F)n(-c3ccncn3)c2C1 | cell-free assay, inhibitor |  | 1 µM |  | inhibition | -3.8%
O=C(Cc1ccc(OCc2ccccc2)cc1)NC1(C(=O)O)CCN(C(=O)c2ccc(-c3cccc(Cl)c3)cc2)CC1 | enzyme activity, inhibitor |  | 10 µM |  | activity vs control | 120%
C=CC(=O)Nc1cc(-c2nn(C3CCN(CCNC(=O)[C@H](C)CCC45CC6CC(CC(C6)C4)C5)CC3)c3ncnc(N)c23)ccc1Oc1ccccc1 | inhibitor, KiNativ profiling | biochemical | 2 µM |  | inhibition | 34.1%
CN1CC[C@@H](COc2cnc(C#N)cc2-c2ccn3nc(NC(=O)C4CC4)cc3c2)C1 | enzyme activity, inhibitor |  | 1 µM |  | inhibition | 0%
CC(C)=CC1OC(C)(C)C2C=C3C(=O)C(Cl)=CC(O)C3C3C(O)C4OC4C(=O)C132 (centres unmarked) | cell-free assay, competition with immobilised ligand |  | 10 µM |  | remaining binding | 95%

Excerpt of the above:
SMILES | test | test system | setting | how to read | endpoint | value
CNC(=O)C[C@H](Cc1ccc(C#N)cc1)NC(=O)c1cc(-c2ccc(CN[C@H](C)c3ccc(C)cc3)o2)ccc1Cl | enzyme activity, inhibitor |  | 1 µM |  | activity vs control | 108%
C=CC(=O)N1CCc2ccc(-n3c(=O)ccc4cnc5ccc(-c6cnn(C)c6)cc5c43)cc21 | KINOMEscan |  | 1 µM | relative to: DMSO control | remaining binding | 97%
